Experimental data from different studies.
Compare with care: the assays were run in different laboratories.
US11 1-149: US11 1-149 (Herpes simplex virus 1, UniProt Q5MDG9)
B1: hisG (Mycobacterium tuberculosis, UniProt P9WMN1); chain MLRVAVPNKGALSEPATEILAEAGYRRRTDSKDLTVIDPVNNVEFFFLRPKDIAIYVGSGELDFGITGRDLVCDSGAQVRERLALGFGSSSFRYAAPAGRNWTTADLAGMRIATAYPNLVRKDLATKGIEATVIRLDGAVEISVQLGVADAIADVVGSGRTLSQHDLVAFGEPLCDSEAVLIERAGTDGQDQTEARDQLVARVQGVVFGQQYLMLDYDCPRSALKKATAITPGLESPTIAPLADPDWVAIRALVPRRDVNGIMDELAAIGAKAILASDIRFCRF

| Substance | tested on | test | test system | setting | measurement | result |
| --- | --- | --- | --- | --- | --- | --- |
| CGGGCCCGTCCCACCGCCCTGGAGCACCATCCGGGGCCGTGGGCCGGGCACCGGG (structured DNA) | UL84 1-586 (Human cytomegalovirus, UniProt P16727) | pull-down immunoblot | folded DNA | – | binding | no binding |
| GGGUAUGGAUCCACAUCUACGAAUUCCUUCGCAAUCCUUCAGUGCAGGUGACCUUCUUCACUGCAGACUUGCGAAGCUU (structured RNA) | US11 1-149 | EMSA | folded RNA | – | binding | binds |
| UCAAAA (ssRNA) | HIV-1 reverse transcriptase p66/p51 (HIV-1) | filter binding | RNA | 5 µM | binding | no binding |
| B1 (hisG) | O=P(O)(O)OC[C@H]1O[C@H](OP(=O)(O)OP(=O)(O)O)[C@H](O)[C@@H]1O | steady-state kinetics | – | pH 8.5, 25 °C, apparent, together with: ATP | Km | 49 µM |
| AGCAGCACAGAGGTCAGATGGCCATCCCCCCGTCCGATGAGTGGTGCTCCTATGCGTTCCGGATACGCTGCATGCGTGAA (ssDNA) | G residues 67-298 (Human respiratory syncytial virus, UniProt P20895) | capillary electrophoresis | single-stranded DNA | – | binding | no binding |
| GGGAAUGGAUCCACAUCUACGAAUUCAUCAGGGCUAAAGAGUGCAGAGUUACUUAGUUCACUGCAGACUUGACGAAGCUU (structured RNA) | US11 1-149 | EMSA | folded RNA | – | binding | no binding |

Some of these lines once more:
| Substance | tested on | test | test system | setting | measurement | result |
| --- | --- | --- | --- | --- | --- | --- |
| CGGGCCCGTCCCACCGCCCTGGAGCACCATCCGGGGCCGTGGGCCGGGCACCGGG (structured DNA) | UL84 1-586 (Human cytomegalovirus, UniProt P16727) | pull-down immunoblot | folded DNA | – | binding | no binding |
